# Measurements from different studies.
# A part holds a random share of what one study measured. Positions count from the first letter of the parent shown.

# Block 1
# Target: Interferon regulatory factor 5, full length, phosphomimetic (IRF5, Homo sapiens, UniProt Q13568-2, residues 1-514, K96S/S451D/S453D/S456D/S462D)
# Technique: protein-binding microarray
# Molecule type: double-stranded DNA, one strand shown
# Sample: in vitro
# Tested at: 250 nM
# Setting: 60-bp whole probe
# Together with: salmon DNA 0.4 mg/ml
# Baseline: random background probes
# Direction: higher = stronger binding
# All sequences stand within: GCCTAGCAC … GTCTTGATTCGCTTGACGCTGCTG
Strand,log fluorescence
ATTGGTTGAACATGAACTTCGTGCTAG,0.108 z-score
GACGGTTTCCTGATCCTGACGTGCTAG,0.111 z-score
TCAACTTTAAATTAGACACTGTGCTAG,0.311 z-score
TCATGTCTGGGTATTTTACTGTGCTAG,0.0525 z-score
GACGGTTTCGACACAGGGGACGTGCTA,5.21 z-score
TTAGGTATCGGTCTCGGCTAGTGCTAG,6.48 z-score
GACGGTATCGGTTTCCGGACGTGCTAG,7 z-score
GTGTATATATAATATATATTCGTGCTA,1.01 z-score
ATGAAAATCTCAATGGGTTAGTGCTAG,0.413 z-score
TCAAAGTTCTTTTTTTCACTGTGCTAG,1.35 z-score
TTAGATATCGGACTGGATTAGTGCTAG,0.981 z-score
TTAGATTTCATTCTCGATTAGTGCTAG,2.17 z-score
GACGGTATCGGTATCGGGAGGTGCTAG,6.25 z-score
TACGGTTTCGGGTATCGGGACGTGCTA,7.94 z-score
GACGATTTCTGTTTCGAGACGTGCTAG,5.74 z-score
GACAGTCTCCTACTGCTGACGTGCTAG,-0.251 z-score
CTAGGTATCCTTCTCCTTTAGTGCTAG,-0.0105 z-score
GACGAATTGGGGTTTCGAGACGTGCTA,1.27 z-score
TCACTCGTGTTTTTCTCACTGTGCTAG,0.644 z-score
GACGGTTCCCTTTTCCTGTCGTGCTAG,0.773 z-score
TCCTCTTTCACTGCTCCCCAAGTGCTA,3.8 z-score
GACGGTTTCTGTTCCGGGACGTGCTAG,3.63 z-score
GACGGTTTCGACTTTCTGGACGTGCTA,6.32 z-score
TTAGGTGTCGGGTTTCGGTTAGTGCTA,7.24 z-score
TTAGAACTGGGGAATGGATTAGTGCTA,-0.22 z-score

# Block 2
# Target: RNA binding protein fox-1 homolog 2, RRM domain, GST-SBP tag (RBFOX2, Homo sapiens, UniProt O43251-10, residues 100-194)
# Technique: RNA Bind-n-Seq
# Molecule type: RNA
# Sample: in vitro
# Tested at: 365 nM
# Setting: natural RNA segment, single round, ends assumed
# Baseline: no-protein control
# Direction: higher = stronger binding
# All sequences stand within: GGGAGUUCUACAGUCCGACGAUC … UGGAAUUCUCGGGUGCCAA
# Target sequence (chain): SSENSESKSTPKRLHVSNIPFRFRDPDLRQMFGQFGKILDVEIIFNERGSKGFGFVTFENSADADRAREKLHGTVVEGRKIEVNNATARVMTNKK
Strand,RBNS enrichment (R)
CAGUGUGUCACACUGAGCUGGGCACCACAGGCUGCCUCAUGACCCUCCUGUCCAGCAGGUAGUGGGUGAAUGUGUGAAGGUCUUGCCUGAAUCCAUCAGGACUUGGGAAA,0.913
CAUGGUUUUUGAUCCCAGCUCGCCCACAGCCCUGGCCCCACCUCACCCCAUAGUGGGGGACUGGAGUCGCCUUGGUGCUCAUUCCCUGAGCCCCCCAAUCCUCCUCUGUC,0.285
UGAUAUAGUGUUACUGUGAGCCUGUCAGUAGUGGGUACCAAUCUUUUGUGACAUAUUGUCAUGCUGAGGUGUGACACCUGCUGCACUCAUCUGAUGUAAAACCAUCCCAG,0.295
UGUGGCUUUCUUAAAGCCCUGUUGUAAAAAAUUACUAUGUGGAUGGCAGUCUCUCACAUCACAGAUGUGGAAAGUAUAAUUUUAUAUUUGUAUUUUCAAAUAAAUAAGUU,0.496
UUUCAGAAGGAAUACUUGGUUCUUUCUGGGGUCUCUAAUGUUCUCAGCCAAAACCUGGCCUGGCUACCAAGAAGAGUGGGAAGACAGGAGGAGCAGACUGCUGCUGUUUU,0.301
GCCUGCCCCAGGUGUCCCGCUCCUCUCAGAGUCCUCCCCCUACCAGGUAGUGUGUAGCUCCAUUUCAGAAUGUUAACCUCCAGUGAAGAGCUAAUGACUGGUUAGAAGAU,0.658
GGCACCCAGACCACUGCCCACCAGUGACGGACAUGCACGUGGCAGAUCAUGAUUUCCAGCCCACGGAGCCAGCAUUUGAACCUUGUAUAAUUAACUUUCAGUUAUGAUUU,1.11
CUGGGCCCCUAACCUGUCAGUUCACCCAUCUAGACCAGAGUCUGUAGCCAGACCUGGCCCACUGCCUUUUUUGUAAGGCCCUUGAGAGCCUUCCUUCCUUUCUCUUUCUU,0.767
ACUCUUAACUUCUUAGUGCCUCAGUUUUCCUUUGGGGUAUACUUCACAAGGUAUCAGAAGUACUUUCAGUCUACAGGUCUCUAUGUCCACAUAACUAAGGAAUGCCUAAC,0.278
AUGGGAGGCCAGCAGGACCCUGCCCCAUGUGUCAGCUACCACAGAUUAAAGCUGUUACCGCACACGGGCCGGCUUCUUUCUCCACAGGGUGGUGGGGUGGGUGGCUAUGG,0.722
UUUCUUUGUUAAUUGUACACUGAAUAAUGCCUUUUAAAAAUCAAAAUAAAAUUAACAAAUAAUGGUGAAUGAAGUGAGAUGAAAACUUGCUUAAUUUUUGCCUUGAUGAG,0.381
CGGGUCCAUGAGGAGCUUGAGGGCCAGAGUGUCAGGCCUGACCUCAGACACAAAGGCCCCUCGGCUGGGGGGCAGUGGGCAUGGAGCUGGCCUGCUAACAGCCCCCCGAU,0.531

# Block 3
# Target: Histone acetyltransferase KAT6A, winged helix 1, GST fusion (KAT6A, Homo sapiens, UniProt Q92794, residues 1-85)
# Technique: protein binding microarray
# Molecule type: double-stranded DNA, one strand shown
# Sample: in vitro
# Tested at: not given
# Setting: 8-mer, flanks averaged, mean of 2 arrays, mostly near background
# Baseline: not given
# Direction: higher = stronger binding
# Residues (chain): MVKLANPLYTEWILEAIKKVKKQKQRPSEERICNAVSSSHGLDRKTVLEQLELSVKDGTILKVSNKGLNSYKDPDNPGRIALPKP
Strand,E-score
GCGAGCCC,0.256
CGCCGTTC,0.353
CCCTGAAC,0.0212
GCAACGCC,0.0936
ACTGCTTG,-0.214
ATAGGATG,0.0225
AAGCTAGA,-0.262
AGCGTGGC,0.0888
CGTGGAAC,0.166
TGAATCCA,-0.234
AGACCGCC,0.284
ACACCAAC,-0.15
CTCTAAGA,-0.00742
GCCAAGAC,-0.183
CCAGTACC,-0.141
ATTGAGTC,-0.106
GGAACACC,-0.101

# Block 4
# Target: CCNF, cyclin fold, Cln2 fusion (human)
# Technique: yeast growth competition, sequencing
# Sample: yeast
# Setting: strong parent motif
# Baseline: not given
# Direction: higher = stronger binding
# Parent: CDC25A docking peptide (human); PPHRRRLLFACSP
Substitution,normalised enrichment score
PPHRRRLLFACSS [P13S],7.2
PPHRQRLLFACSP [R5Q],1.63
PPHRRRLTFACSP [L8T],5.85
FPHRRRLLFACSP [P1F],7.31
PPHGRRLLFACSP [R4G],6.44
PPHRRRLLFAASP [C11A],8.19
PPHRRRALFACSP [L7A],1.72
PPKRRRLLFACSP [H3K],2.52
PPHKRRLLFACSP [R4K],6.23
PPHRVRLLFACSP [R5V],2.35
PPHRRHLLFACSP [R6H],3.24
PPHRRKLLFACSP [R6K],7.97
PPHRNRLLFACSP [R5N],1.11
PPHRRRLLFACKP [S12K],6.24
PPHRRRLLDACSP [F9D],0.248
PPRRRRLLFACSP [H3R],3.89
PPHRKRLLFACSP [R5K],4.52
PPSRRRLLFACSP [H3S],9.81

# Block 5
# Target: Ras GTPase-activating protein-binding protein 1, full length (G3BP1, Homo sapiens, UniProt Q13283)
# Chain of UniProt Q13283 (whole entry, looked up): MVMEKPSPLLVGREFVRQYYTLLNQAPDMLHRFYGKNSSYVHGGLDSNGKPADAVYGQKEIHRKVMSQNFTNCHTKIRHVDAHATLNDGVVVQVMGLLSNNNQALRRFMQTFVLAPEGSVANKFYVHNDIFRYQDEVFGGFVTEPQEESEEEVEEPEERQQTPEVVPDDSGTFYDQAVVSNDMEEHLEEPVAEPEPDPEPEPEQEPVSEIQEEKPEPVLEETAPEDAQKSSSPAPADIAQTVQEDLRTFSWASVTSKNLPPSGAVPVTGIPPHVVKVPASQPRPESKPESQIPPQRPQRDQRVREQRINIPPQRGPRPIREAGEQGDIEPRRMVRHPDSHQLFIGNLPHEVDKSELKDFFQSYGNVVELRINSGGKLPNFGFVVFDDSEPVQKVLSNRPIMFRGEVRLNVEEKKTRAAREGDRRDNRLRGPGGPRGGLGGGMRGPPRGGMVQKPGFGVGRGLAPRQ
# Technique: RNA Bind-n-Seq
# Molecule type: RNA
# Sample: in vitro
# Tested at: 200 nM
# Setting: whole 134-nt RNA, ends assumed
# Together with: 150 mM KCl
# Baseline: input library
# Direction: higher = stronger binding
# All sequences stand within: GGGAGUUCUACAGUCCGACGAUC … UGGAAUUCUCGGGUGUCAAGG
Strand,log2 enrichment
AGUCCUGUGCUACACAUCGUAUGUACCGAAUCGGGGUGGGGUUUGGGGAAAAAGGGGAAAGUAUUAUGUUACGCCGUUCGGAUCUGCACU,0.321
GUCCUGUGCUACACAUCGUAUGUACCGAAUCGGGAAAAAAAGGGUGGGUUUUUUUGGGAAAGUAUUAUGUUACGCCGUUCGGAUCUGCAC,-0.247
ACCAUGCAGGUGGGCAUCUUUGGGAAGUGGGGCAAGGGGGGGAUAGGGAGGGGGGUAACACUUUGGGAACAGGUGGUCCCAGGUCGUGUC,1.23
UUCCAACAGUUAUGGGAUCCCAGAACCUGCUCAUGCAUACGCUCAACCUCAGACCACAACUCCUCUACCUGCAGUUUCCGGUUCUCCUGG,0.259
UCAAGUCCUGUGCUACACAUCGUAUGUACCGAAUCGGUGGAAAAAAAGGUUUGGAAAGUAUUAUGUUACGCCGUUCGGAUCUGCACUUCC,-1.06
ACCAUGCAGGUGGGCAUCUUUGGGAAGUGGGGCAAGGGGGGGAUAGGGAGGGGGGUAACACUUUGGGAACAGAUGGUCCCAGGUCGUUUC,1.02
UUCGUUUUUUUCCUUAGUCUGAAGUUGCAGCCGGAGUGAAGAAGAGCGGACCGCUGCCCAGUGCUGAGGUAGAGUGUCGGAUCUGUUUUC,-1.89
AGUCCUGUGCUACACAUCGUAUGUACCGAAUCAAACCCCCAAACCCCCAAAUUUAAAAAAGUAUUAUGUUACGCCGUUCGGAUCUGCACU,-0.374
GUCCUGUGCUACACAUCGUAUGUACCGAAUCGGGGAAAGGGGAAAAAAAGGGGUGGGGAAAGUAUUAUGUUACGCCGUUCGGAUCUGCAC,0.548
GAAGGAAGUAAAAACAAAUGGAAAUGCUUCGGAUAGUGGCAGGGGUGGGGGUUGCUAAGGAAAGGGUGGGAUGGGAGUGGGUAAAGAGUU,0.737
ACCAUGCAGGUGGGCAUCUUUGGGAAGUGGGGCAAGGGGUGGAUAGGGAGGGGGGUAACACUUUGGGAACAGGUGGUCCCAGGUCGUUUC,1.01
UCCUGUGCUACACAUCGUAUGUACCGAAUCGGGGUGGGGAAAAAGGGGAAAAAAAGGGGAAAGUAUUAUGUUACGCCGUUCGGAUCUGCA,0.654
UGGGAGGUGGAUUUUGUUUAUUUUUAUAGCUCAUUUCCAGGGGUGGGAAUUUUUUUUUAAUAUGUGUCAUGAAUAAAGUUGUUUUUGAAA,0.239
UGGGAGGUGGAUUUUGAUUAUUUUUUUAGCUCAUUUCCAGGGGUGGGAAUUUUUUUUUAAUAUGUGUCAUGAAUAAAGUUGUUUUUGAAA,0.627

# Repeated from above (block 3):
Strand,E-score
GCCAAGAC,-0.183
CTCTAAGA,-0.00742
TGAATCCA,-0.234
ACACCAAC,-0.15
CGTGGAAC,0.166
AAGCTAGA,-0.262
CGCCGTTC,0.353
AGCGTGGC,0.0888
ACTGCTTG,-0.214
ATAGGATG,0.0225
ATTGAGTC,-0.106
GGAACACC,-0.101
CCCTGAAC,0.0212
GCAACGCC,0.0936
